Assay results collected from several papers.
Parts stem from different laboratories: compare values within a part only.

Series 1
Target: Histone acetyltransferase KAT6A, winged helix 1, GST fusion (KAT6A, Homo sapiens, UniProt Q92794, residues 1-85)
Method: protein binding microarray
Molecule type: double-stranded DNA, one strand shown
Matrix: in vitro
Concentration: not given
Setting: 8-mer, flanks averaged, mean of 2 arrays, mostly near background
Relative to: not given
Reading: higher = stronger binding
Target sequence (chain): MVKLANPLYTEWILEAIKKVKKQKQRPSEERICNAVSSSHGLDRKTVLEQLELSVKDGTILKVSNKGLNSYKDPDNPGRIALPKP
Sequence | E-score
AATTAAAT | -0.117
ACGCTCTG | 0.0666
AGACTACG | 0.0537
GAATGTAC | -0.00726
GAGTTAGA | -0.0795
AGTACCAG | -0.24
AGCGGAGG | 0.115
ACTGATAG | -0.202
AAATATGC | -0.159
GTTGCGGA | 0.0086
ACCCCCTG | -0.0251
CGTGGGGC | 0.022
GGTGGAAC | -0.0321
AATATTGA | -0.0588
ATGTACAC | -0.125
CTAACAGC | -0.0276
AGTAACGA | -0.0494
ACGTAGAT | -0.042
ACCGTCCA | 0.162
AATTCCCA | -0.29

Series 2
Target: RNA binding protein fox-1 homolog 2, RRM domain, GST-SBP tag (RBFOX2, Homo sapiens, UniProt O43251-10, residues 100-194)
Method: RNA Bind-n-Seq
Molecule type: RNA
Matrix: in vitro
Concentration: 365 nM
Setting: natural RNA segment, single round, ends assumed
Relative to: no-protein control
Reading: higher = stronger binding
All sequences stand within: GGGAGUUCUACAGUCCGACGAUC … UGGAAUUCUCGGGUGCCAA
Target sequence (chain): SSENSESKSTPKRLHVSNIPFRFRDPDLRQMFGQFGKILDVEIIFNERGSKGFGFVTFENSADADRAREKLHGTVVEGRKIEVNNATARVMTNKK
Sequence | RBNS enrichment (R)
AAAUUUCUUUUUACUUUUGUGGAGCAUUAGAGUCACAGUUUACCUUAUUGAUAUUGGUCUGAUGGUUUGUGAACUCUUGCUGGGAAUCAAAAUUUCCUUGAGACUCUUUA | 0.592
CAUUACCGUGUACCUUUCCCAUUGUGGUCAUGCCAUUUGGCAGGGGGAGAAUGGGAGGCUUGGCCUUCUUUGUGAGGCAGUGUGAGCAGAAGCUGAUGCCAGCAUGUCAC | 2.68
CAGCAGCUGCUCGACAAGGGGCGCAGGGUGGCUGUCUUUGUUCCAGCACUGUUCAGGCUGCCUGUCAUCCCGGGCCUGCCAGCUCCCCUGAGUGAUGAGCACUUCCAAGC | 0.51
GAGAGCAGGGGUUUGAAGCCAGCUGUCGAAGAGCAUCCCUGCUGUCUUAAGAAGCUUUUUCCCCAUAGUGCCUAUAGUUUCCAAAGAAACUCAACUUCCUAACUGUGUUA | 0.341
CUACUUGGUACAAUAAUUAUUGUAAUUAAGAGAUGUAGCCUUUAUUAAAAUUUUAUAUUUUUCAAAAUGUCAGCCUCAUCUUUGGAUCCCGCAGGGUGGGAGUGGGACCA | 0.489
GACCAAAGGGAUGGUAUUGAGAAGAGAGAAAGAAGAUAGUGAGAUUUAAGUUCCUGCUGCCUGGGUAGGCCCCACAAGGCCUGGUCUGGGAGUAUACGGAAACAAAAAUG | 0.644
AGCCGCAAGUCUCAGGGGGCUUUUGUCUGAGGACCUUCUUGGGGCCAGUCUCUGAGGACGCUGCCACCCUAGAGCACAUGCAUGCCCAGCCAUUCUUCCUGCUUCUGGCC | 4
AGCUAUUUAAAACCAGUAAGGAGACUUGAAAUUCAGAAAAUCAACACAUUUUUAAAUGACUAACUUCUAAAAGCCCCAACACAUGACGCCAUCUGAAGACCCGCAACGGA | 0.457
ACAACCUACCCAUCAUCCCUAGUGUGUCCCGUCUCCUCCUGCCACCUGUCUGUAUUAUUCUGACCCAGGGGAGUCAGUCACUGUGGGGCCUCCUUCCUCUGCUGGUAUAC | 0.593
GUUUCAAUUUAGGCCAAGUACUAGAACAAGGAAUCAUCAAAGAUAUAUGGGUAGAUUUUAUUAUGUACACAAAGACAAAUGGACCCUGAGAAAUGUAUGCGUUUGUAAAC | 1.3
CAUAGCAAUCGGAAUUAUUUUAAAUUCAAAAAUUGAUGCCCUCCCAAACCCCCCAAAGUAAAAAUUUGUUAAAGUGCAGAUUUUUUUUUUCUUUUUAUGUUAUGUGGUGU | 1.62
AUCCAGGUAGUUCCUGUCAUGUCCACACACACAUGGAUUGUAGUGAUCCAAUUGCCCCAGUCUCCCUGCAUUUGCUAUUAAGUGAAUAUGCUGAACUGUCAUAAAAUUUU | 0.514

Series 3
Target: Interferon regulatory factor 7, full length, phosphomimetic (IRF7, Homo sapiens, UniProt Q92985, residues 1-503, S101K/S471D/S472D/S475D/S476D/S477D/S483D/S484D/S487D)
Method: protein-binding microarray
Molecule type: double-stranded DNA, one strand shown
Matrix: in vitro
Concentration: 250 nM
Setting: 60-bp whole probe
Together with: salmon DNA 0.4 mg/ml
Relative to: random background probes
Reading: higher = stronger binding
All sequences stand within: GCCTAGCAC … GTCTTGATTCGCTTGACGCTGCTG
Residues (chain): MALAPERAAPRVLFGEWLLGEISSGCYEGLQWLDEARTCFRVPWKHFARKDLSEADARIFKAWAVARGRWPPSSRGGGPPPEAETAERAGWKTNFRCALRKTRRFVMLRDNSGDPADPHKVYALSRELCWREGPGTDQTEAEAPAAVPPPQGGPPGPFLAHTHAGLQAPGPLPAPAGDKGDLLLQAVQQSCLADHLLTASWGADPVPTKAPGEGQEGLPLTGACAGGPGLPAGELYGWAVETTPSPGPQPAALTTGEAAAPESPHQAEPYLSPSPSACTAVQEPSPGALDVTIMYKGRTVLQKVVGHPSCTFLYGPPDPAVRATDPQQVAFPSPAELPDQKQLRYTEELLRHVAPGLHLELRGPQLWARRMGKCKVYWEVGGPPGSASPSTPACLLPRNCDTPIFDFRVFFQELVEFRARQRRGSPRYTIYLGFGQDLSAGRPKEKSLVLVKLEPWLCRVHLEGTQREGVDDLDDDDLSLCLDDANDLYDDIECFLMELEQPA
Sequence | log fluorescence [z-score]
GACTTTTTAGATATCTTTTTGTGCTAG | 0.631
TTAGGACTGCTCCTGCTTTAGTGCTAG | -0.586
TCATTTTACTTTCTGAAACTGTGCTAG | 2.1
TTGAGGTTTTCTCTGGTTCTGTGCTAG | -0.0895
CACGGACTGGGTCTCGGGACGTGCTAG | -0.42
TCAATTTTCATTTTGTGACTGTGCTAG | 2.54
CAGGGGCTGCCTGGATGCCGGTGCTAG | -1.63
GACGGTATCGGTATCGTGACGTGCTAG | 1.4
GACGGTCTCGGACTGGCGACGTGCTAG | -0.0671
TTAGAACTGGGAACTGGATTAGTGCTA | -0.0652
GACGGTTTCGCGTATCGGGACGTGCTA | 3.74
TTAGGTATCGGACTGGGCTAGTGCTAG | 0.0184
TCGTTATCCTATATCTGAACGTGCTAG | 2.8
TTAGATTTCGGGATTGGATTAGTGCTA | 0.446
GACGGTTTCGGGGCTGGGGACGTGCTA | 2.28
TCATGTGTCAGGTTTACTACTGTGCTA | -0.26
GCACGTGACTGTTTCCCAATGTGCTAG | 0.41
TTAGGACTGGGGACTGGGTTTGTGCTA | -0.422
GACGGTTTTCTTCTCCTGACGTGCTAG | 1.47
TCAAAAATGAATATTAGACTGTGCTAG | -0.169
AGACCTTCACCTCTCTGTCCGTGCTAG | 0.0439
TTAGAACTGAGACCGGATTAGTGCTAG | 0.299
TCAACCCTCCCTCTGTAACTGTGCTAG | -0.252
TTAGGTATCCTTATCCGTTAGTGCTAG | 0.304
TAGAACTTCTCCACTGAATGAGTGCTA | -0.14

Series 4
Target: RING finger protein unkempt homolog, zinc fingers 1-6, SBP tag (UNK, Homo sapiens, UniProt Q9C0B0, residues 30-357)
Sequence of UniProt Q9C0B0 (30-357, looked up): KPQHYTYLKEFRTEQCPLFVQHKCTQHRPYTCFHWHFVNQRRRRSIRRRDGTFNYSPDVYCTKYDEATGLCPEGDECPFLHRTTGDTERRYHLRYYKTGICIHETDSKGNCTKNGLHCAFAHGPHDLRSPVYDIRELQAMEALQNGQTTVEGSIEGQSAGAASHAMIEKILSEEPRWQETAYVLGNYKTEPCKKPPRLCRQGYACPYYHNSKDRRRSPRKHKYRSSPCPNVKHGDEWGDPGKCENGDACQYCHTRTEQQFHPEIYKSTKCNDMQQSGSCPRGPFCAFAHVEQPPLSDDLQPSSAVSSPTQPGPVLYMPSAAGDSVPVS
Method: RNA Bind-n-Seq
Molecule type: RNA
Matrix: in vitro
Concentration: 100 nM
Setting: RNA with constant flanks, vertebrate orthologous sites, ends assumed
Relative to: input RNA pool
Reading: higher = stronger binding
All sequences stand within: GGGAGUUCUACAGUCCGACGAUC … CAACAGAGGAUUGAGCAUCA
Sequence | bound/input enrichment [ratio]
AUCCCUCAGUGACAGUAUGCCUUCUGUAGCAGAUUCUCACUCUAGUCAUUUUUCUGAAUUUAGUUGUUCUGACCUAGAAAGCAUGAAAACUUCUUGUAGUCAUGGUUCCAGUGAUUAUCA | 1.46
UCCGCUGAACCCCAUUUCUUCUGUUUCAUAGUGCAGAAGUAUUCUUUUCAAUUAUAUUUUUAGUGGACUUGUUUUAAUUUUAGAGGAAUUUCCAGCACAGAUACUGUGAGCUGACAUGGA | 6.91
CAAGACUGGUUUGGUAUCUAUAUGUGUACCACUUAAUCCAUUGUUUAAAAAAUCUGUUGGCCUAGGAUUAAAGUUGAAUCAUUCAACACUUUAUAUUGCUUGUAAUCAAUAUUUUGAAAG | 0.31
UGGGUUACUCCUAUUAUUAUCAAGUAGCUGGAAUUGUGAAGGUCGGAGUAGUUAGAUCUUUAGCUUUGAUUCCUUAUUUUUUUUUUGUAUUACUAUCCAUGUGUAUAAAUUAUUGAUCAU | 1.63
UCUCAUUCCAGGUUGGACCUAGUGGGAAAGUCAUAGGAAUUGACCACAUUAAAGAGCUAGUAGAUGACUCAAUAAAUAAUGUCAGAAAGGAUGAUCCAAUGCUUUUGUCUUCAGGGAGGG | 0.902
UAUCUUUAGGAUGAAGCUCUUACAUCAAGUGUCACGAGUUUGGAAAACAGAUGGGCUGACUAGUUGUUCUUAUAAAUUACUGUCUGUGGAACACAAUCCUUUAUAUAUCAACAUCACAGU | 0.758
GACCUCUGGAACUCCUAACUUUCGAGCUGUGGCUGUUUUUGAUACUGAUUUUAUUUUCUUUACGACUUUCCCAUUUCCUGCCUUCUCUCCUUCUGUUCCCACGGCUUGACUUGUGGAUGG | 1.18
CAACUCAAUGGUUGAGGGUUCAGAGCUCAAAAAGGUUCGCUCCAACUCUAGAAUUUACCAUAGGUAUUUUUUAUUGGAUGCCGACAUGCAGAGCCUGAGGUGGGAACCAUCAAAGAAGGA | 0.265
UUCACCACUCCUGGGUGCGUGACUGAGGGUGAAGCAUCCACCAGCACUUCAAGGGGUCCAUAGUAUUUUCUUUUGCUGCCUCAAAGUCCCCAAAGCCUUCAAGCGGAAGUGGCAGUAGAU | 0.66
UGUUAGUUAUUGAUGGACUCUAUUUUUUUAUUAUUACUUGGACCUUGGUCGUUUUUAUACUAGCAAAAUGUCUUGUUUUAAUUUGUGUUUUUUGGGGGGGAGGGAGUGAACUUGCUGAUU | 2.68
UCAGUGCCCUGGGCCGGGACAGAUUUUUUUUAACGUCUUGAAACUUAAACUCUGUGCUUGUAGGAUACUGUAACCUUUUUGUCUUUUUUUUUUUUUAAAACCUCCACCUCCAGUGACUGU | 0.896

A few entries again (series 2):
Sequence | RBNS enrichment (R)
ACAACCUACCCAUCAUCCCUAGUGUGUCCCGUCUCCUCCUGCCACCUGUCUGUAUUAUUCUGACCCAGGGGAGUCAGUCACUGUGGGGCCUCCUUCCUCUGCUGGUAUAC | 0.593
CAUAGCAAUCGGAAUUAUUUUAAAUUCAAAAAUUGAUGCCCUCCCAAACCCCCCAAAGUAAAAAUUUGUUAAAGUGCAGAUUUUUUUUUUCUUUUUAUGUUAUGUGGUGU | 1.62
AGCUAUUUAAAACCAGUAAGGAGACUUGAAAUUCAGAAAAUCAACACAUUUUUAAAUGACUAACUUCUAAAAGCCCCAACACAUGACGCCAUCUGAAGACCCGCAACGGA | 0.457
GUUUCAAUUUAGGCCAAGUACUAGAACAAGGAAUCAUCAAAGAUAUAUGGGUAGAUUUUAUUAUGUACACAAAGACAAAUGGACCCUGAGAAAUGUAUGCGUUUGUAAAC | 1.3
GAGAGCAGGGGUUUGAAGCCAGCUGUCGAAGAGCAUCCCUGCUGUCUUAAGAAGCUUUUUCCCCAUAGUGCCUAUAGUUUCCAAAGAAACUCAACUUCCUAACUGUGUUA | 0.341
CAGCAGCUGCUCGACAAGGGGCGCAGGGUGGCUGUCUUUGUUCCAGCACUGUUCAGGCUGCCUGUCAUCCCGGGCCUGCCAGCUCCCCUGAGUGAUGAGCACUUCCAAGC | 0.51
